Measurements pooled from the literature.
A part holds a random share of what one study measured. “And” joins repeats or separate records; there may be more than shown.
Sequence of UniProt Q86UX6 (whole entry, looked up): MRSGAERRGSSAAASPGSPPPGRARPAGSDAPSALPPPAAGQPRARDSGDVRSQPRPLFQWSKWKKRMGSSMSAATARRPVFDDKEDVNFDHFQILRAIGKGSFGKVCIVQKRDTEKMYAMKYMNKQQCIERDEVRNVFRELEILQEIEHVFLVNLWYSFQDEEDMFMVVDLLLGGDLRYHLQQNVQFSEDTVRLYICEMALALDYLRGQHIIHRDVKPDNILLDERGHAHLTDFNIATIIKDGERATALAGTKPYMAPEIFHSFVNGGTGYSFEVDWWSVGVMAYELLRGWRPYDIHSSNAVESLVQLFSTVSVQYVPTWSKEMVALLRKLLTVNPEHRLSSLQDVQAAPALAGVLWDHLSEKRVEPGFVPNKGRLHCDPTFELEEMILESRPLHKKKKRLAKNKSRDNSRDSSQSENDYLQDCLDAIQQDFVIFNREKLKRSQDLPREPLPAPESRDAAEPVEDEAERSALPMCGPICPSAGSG
Sequence of UniProt O75716 (whole entry, looked up): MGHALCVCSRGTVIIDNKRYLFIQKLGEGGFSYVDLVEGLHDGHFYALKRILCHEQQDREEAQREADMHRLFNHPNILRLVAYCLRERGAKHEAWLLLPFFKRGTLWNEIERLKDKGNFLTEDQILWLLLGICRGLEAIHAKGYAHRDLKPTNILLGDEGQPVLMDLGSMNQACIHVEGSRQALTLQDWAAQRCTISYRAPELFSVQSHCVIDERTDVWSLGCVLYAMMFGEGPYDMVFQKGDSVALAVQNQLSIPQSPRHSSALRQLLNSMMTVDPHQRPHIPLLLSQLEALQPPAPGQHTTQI
Sequence of UniProt Q6ZN16 (whole entry, looked up): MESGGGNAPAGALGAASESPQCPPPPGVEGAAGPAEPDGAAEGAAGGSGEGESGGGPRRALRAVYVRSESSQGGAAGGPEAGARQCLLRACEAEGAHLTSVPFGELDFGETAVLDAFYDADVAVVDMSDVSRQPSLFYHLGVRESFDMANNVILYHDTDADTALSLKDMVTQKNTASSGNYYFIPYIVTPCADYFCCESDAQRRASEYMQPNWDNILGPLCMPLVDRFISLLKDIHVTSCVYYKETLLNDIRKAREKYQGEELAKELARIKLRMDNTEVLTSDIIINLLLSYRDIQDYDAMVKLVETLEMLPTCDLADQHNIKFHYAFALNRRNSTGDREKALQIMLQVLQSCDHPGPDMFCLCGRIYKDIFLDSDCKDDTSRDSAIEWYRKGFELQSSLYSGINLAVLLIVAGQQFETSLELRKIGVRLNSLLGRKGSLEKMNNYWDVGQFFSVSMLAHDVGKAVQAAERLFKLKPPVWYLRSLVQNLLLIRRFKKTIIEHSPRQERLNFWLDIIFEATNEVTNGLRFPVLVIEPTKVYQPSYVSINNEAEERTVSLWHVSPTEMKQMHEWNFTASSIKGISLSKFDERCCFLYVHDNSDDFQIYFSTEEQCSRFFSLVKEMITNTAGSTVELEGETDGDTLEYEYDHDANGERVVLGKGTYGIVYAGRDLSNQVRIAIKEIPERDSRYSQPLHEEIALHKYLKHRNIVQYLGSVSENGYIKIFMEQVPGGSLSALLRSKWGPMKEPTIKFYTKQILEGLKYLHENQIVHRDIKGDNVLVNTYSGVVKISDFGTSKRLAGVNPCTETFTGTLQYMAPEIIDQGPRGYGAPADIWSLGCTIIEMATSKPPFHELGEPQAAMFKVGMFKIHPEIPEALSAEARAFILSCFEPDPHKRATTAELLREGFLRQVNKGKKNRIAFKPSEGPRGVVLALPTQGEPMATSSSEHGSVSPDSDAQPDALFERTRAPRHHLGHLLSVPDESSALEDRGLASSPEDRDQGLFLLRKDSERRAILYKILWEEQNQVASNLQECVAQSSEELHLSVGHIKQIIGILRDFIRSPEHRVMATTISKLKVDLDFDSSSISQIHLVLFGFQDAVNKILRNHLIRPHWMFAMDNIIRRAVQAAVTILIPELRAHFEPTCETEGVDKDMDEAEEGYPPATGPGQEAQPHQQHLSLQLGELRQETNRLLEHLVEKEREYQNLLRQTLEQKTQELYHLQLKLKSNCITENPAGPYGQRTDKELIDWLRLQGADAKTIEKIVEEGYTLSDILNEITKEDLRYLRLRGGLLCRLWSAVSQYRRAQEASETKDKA
Sequence of UniProt P19784 (whole entry, looked up): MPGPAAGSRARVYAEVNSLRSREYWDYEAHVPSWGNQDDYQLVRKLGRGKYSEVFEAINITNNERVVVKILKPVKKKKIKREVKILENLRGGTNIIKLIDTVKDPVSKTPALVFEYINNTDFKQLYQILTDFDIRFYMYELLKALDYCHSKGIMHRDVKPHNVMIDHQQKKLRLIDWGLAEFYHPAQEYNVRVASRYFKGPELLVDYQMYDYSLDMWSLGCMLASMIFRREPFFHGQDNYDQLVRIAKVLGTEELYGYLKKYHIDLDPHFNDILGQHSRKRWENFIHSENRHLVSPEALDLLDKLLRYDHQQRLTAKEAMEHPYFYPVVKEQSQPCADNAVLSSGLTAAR
Sequence of UniProt Q9HBH9 (whole entry, looked up): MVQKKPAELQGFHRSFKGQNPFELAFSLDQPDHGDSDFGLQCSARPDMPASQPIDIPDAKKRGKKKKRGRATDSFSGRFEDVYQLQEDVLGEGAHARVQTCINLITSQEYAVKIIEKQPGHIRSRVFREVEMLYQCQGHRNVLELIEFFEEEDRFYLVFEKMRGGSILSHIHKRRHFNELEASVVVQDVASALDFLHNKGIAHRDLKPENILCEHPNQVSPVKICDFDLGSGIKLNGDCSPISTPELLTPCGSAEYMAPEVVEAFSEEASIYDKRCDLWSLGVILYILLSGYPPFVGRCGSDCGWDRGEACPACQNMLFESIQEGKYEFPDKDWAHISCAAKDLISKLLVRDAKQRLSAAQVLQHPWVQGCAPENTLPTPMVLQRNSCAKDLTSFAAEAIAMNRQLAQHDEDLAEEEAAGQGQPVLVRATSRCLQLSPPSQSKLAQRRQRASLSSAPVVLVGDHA
Sequence of UniProt Q9NRP7 (whole entry, looked up): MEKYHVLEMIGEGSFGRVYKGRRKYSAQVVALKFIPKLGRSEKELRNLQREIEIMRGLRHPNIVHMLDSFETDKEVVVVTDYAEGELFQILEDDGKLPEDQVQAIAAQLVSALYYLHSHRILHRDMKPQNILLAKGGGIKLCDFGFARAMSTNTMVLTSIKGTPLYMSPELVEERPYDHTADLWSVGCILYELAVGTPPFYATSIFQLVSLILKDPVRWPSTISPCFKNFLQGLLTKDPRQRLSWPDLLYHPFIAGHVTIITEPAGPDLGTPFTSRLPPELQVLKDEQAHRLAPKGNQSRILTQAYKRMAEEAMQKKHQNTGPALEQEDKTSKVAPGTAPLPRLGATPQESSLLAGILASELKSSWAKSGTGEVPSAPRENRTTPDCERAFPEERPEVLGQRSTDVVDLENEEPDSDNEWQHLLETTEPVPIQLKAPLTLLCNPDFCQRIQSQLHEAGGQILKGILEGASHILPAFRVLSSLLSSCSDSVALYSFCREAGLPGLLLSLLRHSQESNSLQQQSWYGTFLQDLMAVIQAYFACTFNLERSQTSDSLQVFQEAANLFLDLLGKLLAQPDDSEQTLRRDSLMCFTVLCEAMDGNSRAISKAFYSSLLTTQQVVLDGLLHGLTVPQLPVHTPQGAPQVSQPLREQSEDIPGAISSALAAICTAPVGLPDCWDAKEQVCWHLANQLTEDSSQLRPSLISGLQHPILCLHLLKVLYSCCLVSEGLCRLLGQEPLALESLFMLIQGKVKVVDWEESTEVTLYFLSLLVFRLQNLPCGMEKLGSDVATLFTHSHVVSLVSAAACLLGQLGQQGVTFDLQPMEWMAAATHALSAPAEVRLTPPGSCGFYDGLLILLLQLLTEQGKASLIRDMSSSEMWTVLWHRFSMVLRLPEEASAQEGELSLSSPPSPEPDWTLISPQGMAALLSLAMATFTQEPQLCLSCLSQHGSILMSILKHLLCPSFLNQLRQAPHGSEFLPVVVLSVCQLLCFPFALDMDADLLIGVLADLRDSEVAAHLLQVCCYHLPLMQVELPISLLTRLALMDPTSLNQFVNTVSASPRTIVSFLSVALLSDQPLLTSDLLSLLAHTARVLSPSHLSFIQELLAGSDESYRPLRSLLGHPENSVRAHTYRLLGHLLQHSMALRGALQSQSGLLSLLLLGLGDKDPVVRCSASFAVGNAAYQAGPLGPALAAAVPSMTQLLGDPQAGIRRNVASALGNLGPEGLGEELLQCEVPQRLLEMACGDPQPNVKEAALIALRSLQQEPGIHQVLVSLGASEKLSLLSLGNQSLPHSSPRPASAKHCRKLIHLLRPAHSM

Set 1
Cell line: mouse MPNST tumor cells
Method: high-content nuclear imaging
Measured: cell number
Concentration: 10 µM
Time: 12 h
Notes: mean of 2 replicates
Reference: plate mean
Direction: higher = more cells
Compound | nuclei count
NC[C@@H]1O[C@@H](O[C@H]2[C@H](O)[C@@H](O[C@H]3O[C@H](CO)[C@@H](O)[C@H](N)[C@H]3O)[C@H](N)C[C@@H]2N)[C@@H](O)[C@H](O)[C@H]1O | 0.611 z-score
C[C@@H]1CCN(C(=O)CC#N)C[C@@H]1N(C)c1ncnc2[nH]ccc12 | 2.11 z-score
OCCN(CCO)c1nc(N2CCCCC2)c2nc(N(CCO)CCO)nc(N3CCCCC3)c2n1 | 2.41 z-score and 2.93 z-score and 3.48 z-score
O=C(NC(NC(=S)Nc1ccc(F)c([N+](=O)[O-])c1)C(Cl)(Cl)Cl)C(c1ccccc1)c1ccccc1 (stereo not drawn) | -2.17 z-score
Nc1nc(NCc2ccccc2)nc(-c2ccccc2CO)n1 | 0.322 z-score
NS(=O)(=O)c1cc2c(cc1C(F)(F)F)NC(Cc1ccccc1)NS2(=O)=O (stereo not drawn) | -0.111 z-score
CCn1c2ccccc2c2cc(Nc3ccnc(NCCCN4CCOCC4)n3)ccc21 | -5.36 z-score
CC1(C)N=C(N)N=C(N)N1c1ccc(Cl)cc1 | -1.69 z-score
O=C1C=CC(=O)C2=C1C1c3ccccc3C2c2ccccc21 | -0.755 z-score

Set 2
Structure (SMILES): Cc1c(NC(=O)c2cc(C(N)=O)nc3cc(F)ccc23)c(C(F)(F)F)nn1Cc1ccc(C(C)(C)C)cc1
Observed: cell-free assay
Method: competition with immobilised ligand
Concentration: 1 µM
target | remaining binding [%]
PIK3CA (Homo sapiens, UniProt P42336, E542K) | 43
CSNK2A2 (Homo sapiens, UniProt P19784) | 100
STK36 (Homo sapiens, UniProt Q9NRP7) | 97
BMPR1B (Homo sapiens, UniProt O00238) | 82
STK16 (Homo sapiens, UniProt O75716) | 83
MKNK2 (Homo sapiens, UniProt Q9HBH9) | 100
MAP3K15 (Homo sapiens, UniProt Q6ZN16) | 95
GSK3B (Homo sapiens, UniProt P49841) | 100
STK32C (Homo sapiens, UniProt Q86UX6) | 100
DYRK1B (Homo sapiens, UniProt Q9Y463) | 81

Set 3
Target: Aurora kinase A (AURKA, Homo sapiens, UniProt O14965)
Observed: enzyme activity
Action: inhibitor
Concentration: 0.5 µM
Reference: control
Construct (O14965 1-403): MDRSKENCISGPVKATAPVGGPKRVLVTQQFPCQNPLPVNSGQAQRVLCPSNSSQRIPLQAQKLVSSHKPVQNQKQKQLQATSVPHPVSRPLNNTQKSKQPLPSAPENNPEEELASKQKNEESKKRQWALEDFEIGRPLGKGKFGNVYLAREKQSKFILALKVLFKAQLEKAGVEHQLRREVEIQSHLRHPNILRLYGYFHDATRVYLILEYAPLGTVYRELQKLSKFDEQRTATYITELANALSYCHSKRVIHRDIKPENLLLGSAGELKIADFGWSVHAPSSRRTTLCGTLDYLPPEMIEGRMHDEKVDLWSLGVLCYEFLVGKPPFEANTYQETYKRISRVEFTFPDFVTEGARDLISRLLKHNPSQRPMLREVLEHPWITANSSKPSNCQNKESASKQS
SMILES | remaining activity
CCN(CC)CCCCN1c2ccccc2Oc2ccc(Cl)cc21 | 93.3%
CN(C)S(=O)(=O)c1ccc2c(c1)/C(=C/c1cc3c([nH]1)CCCC3)C(=O)N2 | 16.1%
CCCNC(=O)Nc1ccc(Oc2ncnc3cc(OC)c(OC)cc23)cc1Cl | 89.2%
O=C(O)/C=C/c1cc(Br)c(Br)c(Br)c1Br | 77.2%
CCCCc1c(-c2ccc(O)cc2)[nH]c2nccnc12 | 24.5%
Clc1ccc(Nc2nnc(Cc3ccncc3)c3ccccc23)cc1 | 79%
CNc1cc2c(Nc3cccc(Br)c3)ncnc2cn1 | 85.1%
CC(C)n1cnc2c(Nc3cccc(Cl)c3)nc(NCCO)nc21 | 108%
O=C1Nc2ccccc2/C1=C\c1c(Cl)[nH]c2ccccc12 | 108%
CC(C)(C)c1nc2c3cc[nH]c(=O)c3c3cc(F)ccc3c2[nH]1 | 22.3%
O=C1Cc2c([nH]c3ccc(Br)cc23)-c2ccccc2N1 | 99.7%
NC(=O)c1ccc(-c2nc(-c3ccc4c(c3)OCCO4)c(-c3ccccn3)[nH]2)cc1 | 105%
O=C(c1ccccc1)c1ccc(N2CCOCC2)cc1O | 108%
O=C(c1cc2cc(O)ccc2[nH]1)c1cc2cc(O)ccc2[nH]1 | 71.6%
c1ccc(-c2n[nH]c3c2oc2ccccc23)cc1 | 103%
N#Cc1cnc2cnc(NCc3cccnc3)cc2c1Nc1ccc(F)c(Cl)c1 | 98.1%
O=C1NC(=O)c2c1c1c3ccccc3[nH]c1c1[nH]c3cc(Br)ccc3c21 | 60.7%
CCCCc1c(-c2ccc(OC)cc2)[nH]c2nccnc12 | 25.4%
NC(=O)c1cccc(-c2cc(Nc3ccc(OC(F)(F)F)cc3)ncn2)c1 | 107%
Nc1nc(Nc2ccc(S(N)(=O)=O)cc2)nn1C(=S)Nc1c(F)cccc1F | 1.44%
O=c1cc(N2CCOCC2)oc2c(-c3ccccc3)cccc12 | 99%
O=C1c2ccccc2-c2nc3nnnn3nc21 | 71.4%
CC(C)N(CCC(=O)c1ccc2ccccc2c1)Cc1ccccc1 | 104%
Oc1cccc(-c2nc(N3CCOCC3)c3oc4ncccc4c3n2)c1 | 91.9%
C[C@@H](N)[C@H]1CC[C@H](C(=O)Nc2ccncc2)CC1 | 94.6%

Set 4
Compound: CC(C)n1cnc(-c2ccc(F)cc2)c1-c1ncc(C(=O)Nc2ccc(N3CCN(C)CC3)cc2)[nH]1
test | test system | setting | patients with adverse event [%]
Phase 2a trial, measured: hypercholesterolaemia | human, idiopathic pulmonary fibrosis | all compound arms total, grade 3 | 0
measured: prostatic calcification, maximum grade 5 | idiopathic pulmonary fibrosis patients | oral, 60 mg once daily | 0
measured: liver injury | patients with idiopathic pulmonary fibrosis | 30 mg twice daily, trial, with: standard of care therapy | 25
Phase 2a trial, measured: blood urea increased | human, idiopathic pulmonary fibrosis | 60 mg once daily, grade 2 | 0
measured: liver injury | patients with idiopathic pulmonary fibrosis | 30 mg twice daily, trial, without standard of care | 0
Phase 2a trial, measured: haemoptysis | human, idiopathic pulmonary fibrosis | 60 mg once daily, grade 4 | 0
Phase 2a trial, measured: blood creatinine increased | human, idiopathic pulmonary fibrosis | 30 mg once daily, grade 1 | 0

For quick reference, copied from above (set 3):
SMILES | remaining activity
Clc1ccc(Nc2nnc(Cc3ccncc3)c3ccccc23)cc1 | 79%
c1ccc(-c2n[nH]c3c2oc2ccccc23)cc1 | 103%
CNc1cc2c(Nc3cccc(Br)c3)ncnc2cn1 | 85.1%
CCCCc1c(-c2ccc(OC)cc2)[nH]c2nccnc12 | 25.4%
O=C1NC(=O)c2c1c1c3ccccc3[nH]c1c1[nH]c3cc(Br)ccc3c21 | 60.7%
O=C(c1cc2cc(O)ccc2[nH]1)c1cc2cc(O)ccc2[nH]1 | 71.6%
N#Cc1cnc2cnc(NCc3cccnc3)cc2c1Nc1ccc(F)c(Cl)c1 | 98.1%
